Results gathered from unrelated publications.
Every numbered part comes from another study and shows a few of its results, in no order. Positions count from the first letter of the parent shown.

Set 1
Target: RNA binding protein fox-1 homolog 2, RRM domain, GST-SBP tag (RBFOX2, Homo sapiens, UniProt O43251-10, residues 100-194)
Technique: RNA Bind-n-Seq
Form: RNA
Medium: in vitro
Tested at: 365 nM
Notes: natural RNA segment, single round, ends assumed
Baseline: no-protein control
Reading: higher = stronger binding
Shared flanks, not repeated: GGGAGUUCUACAGUCCGACGAUC … UGGAAUUCUCGGGUGCCAA
Target sequence (chain): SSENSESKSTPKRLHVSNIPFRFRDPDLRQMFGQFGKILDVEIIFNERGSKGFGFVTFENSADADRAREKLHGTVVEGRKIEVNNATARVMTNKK
Sequence	RBNS enrichment (R)
ACCAAAGAACCAGAAACUUAAUUUUGGUUAAAUUAUUUAUUUAUUUCAUGCAUUAAUUUUCUUUUUCUUUUUAAAGGUUUAGAUGAGGCUCCUUAGGGAGUCUCUAAAAC	0.408
CACAGAUUUAGAAAUACAUUCUCACUGUCCAAAAUCAGCUUAAACACUGGCUCUGGCGAUGAGUCAUUGUGCAAUUAGAAUCAUAUCUUAUGAUUUAUUUUCUGUCAUUA	0.289
GAUCUACCAUUAGGGUGUGAGAGGUAGCCAGGAACCUUUGGUUUUAUAAAUGGUGACGAAAUGACAUCCUAAACAGAGUCUUUCUCCUGUAAUUUAGCUGAGAGAAUUCU	0.172
UUGAGGCCCAGACUCAGCCUGCCCACUGGUGCCGGAGACGGAGUGGAGUGGGCCUGGAUCCGAGGGAUGCUACCUCUCCCUUUCCCACUUGAGGACCCUGGGGAGAGAUG	0.921
CAGAAGUAGGCUGUGUCCCAUCAGAUCAAUCUGCACCUUCCUGUGGUUGUGCAAACAUCACGGGGCCCUACCCUGAUCCCCAAGGCCCCACCAUCACUGCCCAAGGGGGU	0.336
CUAGGUAACUGCAUAUAUAUAAGGAAUGUAUUUUGUUAAGAAGGCUUUUGUGAAAUUCAGAAUUUUUCUUUUUAAUAUAUUUCUUCCAUGGAAGAGUUGUCAUCACUAAA	0.598
UAUGACUGAGCUUUCUAUAGGAAUUUUAUUAAAGAAUGUUUAAUUUUGUUGUCCUUCUUAAUGUUCUCAGUCAAAUAAAUGAGUGAGCUGGUUUCGGCUGCUCUUGGAAU	1.05
GUCUACUAUGUGCCAGGUUCUGGGGAAGCAGGCAGGGUACAGUCACUUUUGGCCAAGGGUCUUGGGUAACAUCCUGGGUUGAAGUUGCCAAGCUUCAUCUUACUGAAAAA	0.598

Set 2
Target: Ras GTPase-activating protein-binding protein 1, full length (G3BP1, Homo sapiens, UniProt Q13283)
Chain of UniProt Q13283 (whole entry, looked up): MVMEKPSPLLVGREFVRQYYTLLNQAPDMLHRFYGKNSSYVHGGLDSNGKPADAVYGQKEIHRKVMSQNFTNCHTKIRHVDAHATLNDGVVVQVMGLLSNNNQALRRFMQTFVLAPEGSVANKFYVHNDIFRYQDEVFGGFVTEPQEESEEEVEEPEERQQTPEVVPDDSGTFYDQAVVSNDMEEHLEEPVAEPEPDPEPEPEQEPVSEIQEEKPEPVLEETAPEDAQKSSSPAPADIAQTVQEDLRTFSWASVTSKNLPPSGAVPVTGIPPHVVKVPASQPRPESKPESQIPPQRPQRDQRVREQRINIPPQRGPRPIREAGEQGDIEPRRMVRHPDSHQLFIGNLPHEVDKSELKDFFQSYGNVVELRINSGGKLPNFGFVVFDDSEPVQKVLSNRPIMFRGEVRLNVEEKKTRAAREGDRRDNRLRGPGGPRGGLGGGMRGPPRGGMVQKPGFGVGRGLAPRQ
Technique: RNA Bind-n-Seq
Form: RNA
Medium: in vitro
Tested at: 200 nM
Notes: whole 134-nt RNA, ends assumed
With: 150 mM LiCl
Baseline: input library
Reading: higher = stronger binding
Library: 7-deaza-guanosine replaces G
Shared flanks, not repeated: GGGAGUUCUACAGUCCGACGAUC … UGGAAUUCUCGGGUGUCAAGG
Sequence	log2 enrichment
UCCUGUGCUACACAUCGUAUGUACCGAAUCGGGGCCCCCCGGGCCCCCCGGCCCCCCGGAAAGUAUUAUGUUACGCCGUUCGGAUCUGCA	0.227
CCUCAAGUCCUGUGCUACACAUCGUAUGUACCGAAUCGGGGAGGAGGAGGGGAAAGUAUUAUGUUACGCCGUUCGGAUCUGCACUUCCAG	0.705
UUUGAAGAUCAGCUUCAGCAAUGGUUGUCUGAAGACUCAGGAGCAUUUACGGAUUUAACUUCCCUUCCCCUCUAUCUUCCUCAGACUCUA	0.583
GCAGGAAGUAAAAACAAAUGGAAAUGCGUCGGAUAGUGGCAGGGGUGGGGGUUGCUAAGGAAAGGGUGGGAUGGGAGUGGGUAAAGAGUU	-0.173
GUCCUGUGCUACACAUCGUAUGUACCGAAUCGGGGUUUUUGGGGAAAAAGGGGAGGGGAAAGUAUUAUGUUACGCCGUUCGGAUCUGCAC	-0.265
UCAAGUCCUGUGCUACACAUCGUAUGUACCGAAUCGGAAAGGUUUUUUUGGAGGAAAGUAUUAUGUUACGCCGUUCGGAUCUGCACUUCC	-0.117
CAAGUCCUGUGCUACACAUCGUAUGUACCGAAUCGGGUGGGUUUGGGUUUUUGGGAAAGUAUUAUGUUACGCCGUUCGGAUCUGCACUUC	0.00361
UGGCCCUGGUCGCAUGCGGGGAGGAAGAGGUGGCCUCAUGGAUCGUGGUGGUCCCGGUGGAAUGUUCAGAGGUGGCCGUGGUGGAGACAG	0.405

Set 3
Target: ATF1, bZIP domain (human)
Technique: DHFR protein complementation
Medium: yeast
Notes: single substitutions, most at no-binding floor
Baseline: wild-type JUN-FOS pair
Reading: higher = stronger binding
Starting sequence: JUN, bZIP domain (human); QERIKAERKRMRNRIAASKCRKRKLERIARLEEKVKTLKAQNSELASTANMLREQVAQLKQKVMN; partner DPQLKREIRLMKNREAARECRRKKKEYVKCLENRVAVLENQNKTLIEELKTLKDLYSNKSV
Change	binding fitness
M51Q	-1.51 natural log
L31D	-1.42 natural log
A40D	-1.49 natural log
S43R	-1.46 natural log
Q41D	-1.62 natural log
T37I	-1.55 natural log
S43M	-1.49 natural log
K34F	-1.52 natural log
M51F	-1.36 natural log
T48R	-1.48 natural log
L45F	-1.55 natural log
L45S	-1.51 natural log
L38F	-1.44 natural log

Further values, each from its own experiment
Substance	target	assay	test system	conditions	scale	quantity	result
PhoQ, residues 284 288 289 292 302 303 ASASEQ	PhoP, residues 12 14 15 18 19 VGHWL (Escherichia coli, UniProt P23836)	Sort-seq, measured: YFP reporter	E. coli	PhoQ-PhoP variant library, with: 10 µM Mg2+	baseline: high Mg2+ state, higher = stronger signaling	fold induction	2.89

Repeated from above (set 3):
Change	binding fitness
M51Q	-1.51 natural log
S43R	-1.46 natural log
